Published values pooled from the literature.
Lines come from different studies, so protocols differ. ± marks the error that the study gave.

`C=CCC1=C[C@]2(C[C@H](O)C(C)(C)O2)C2=C(C[C@H]3C[C@H]4C(=C)CCCC(C)(C)[C@@H]4C[C@@]3(C)O2)C1=O` gave a selectivity index of 1.7 (coxsackievirus B3; cytopathic effect; Vero, Nancy; reference: CC50 over IC50).
`CN(C)C(CNC(=O)Nc1cc(C(F)(F)F)ccc1N1CCOCC1)c1ccncc1` (stereo not drawn): mutagenicity “negative” (Salmonella typhimurium and Escherichia coli; Mini-Ames; TA98, TA100, TA1535, TA1537, WP2 uvrA pKM101; concentration not given).
With `Cc1cc(C#N)cc(C)c1Oc1nc(NC2CCN(Cc3ccc(F)cc3)CC2)nc2ccccc12` the selectivity index was > 8.87 (HIV-1; TZM-bl, NL4-3 wild type; reference: CC50 over EC50).
`N=C(N)c1ccc(-c2ccc(-c3cccs3)o2)cc1` gave a viability of 94.7 ± 6.5% (Salmonella typhimurium; liquid broth OD; TA1535; 100 µM, 15 h; reference: growth).
`COc1ccc(CNc2nc(N3CCC[C@H]3CO)ncc2C(=O)NN)cc1Cl`: mutagenicity “negative” (Salmonella typhimurium; Ames test; TA98, TA100, TA1535, TA102, TA97a; 62.5 to 1000 µg/plate, with and without S9).
For `N#Cc1ccc(-c2ccc(-c3cccs3)o2)cc1`, the viability was 99.1 ± 8.7% (Salmonella typhimurium; liquid broth OD; TA1535; 100 µM, 15 h; reference: growth).
For `Cc1cc(C#N)cc(C)c1Oc1nc(NC2CCN(Cc3ccc(C#N)cc3)CC2)nc2ccccc12`, the selectivity index was > 22.5 (HIV-1; TZM-bl, NL4-3 wild type; reference: CC50 over EC50).
`N=C(N)c1ccc(-c2ccc(-c3ccco3)o2)cc1` has a viability of 59.4 ± 3.7% (Salmonella typhimurium; liquid broth OD; TA1535; 25 µM, 15 h; reference: growth).
`Cc1cc(/C=C/C#N)cc(C)c1Oc1nc(NC2CCN(Cc3ccc(S(N)(=O)=O)cc3)CC2)nc2ncccc12` has a selectivity index of > 7900 (HIV-1; TZM-bl, NL4-3 wild type; reference: CC50 over EC50).
`C=CCC1=C[C@]2(C[C@H](O)C(C)(C)O2)C2=C(C[C@H]3C[C@@H]4[C@@H](C[C@@]3(C)O2)C(=C)CCCC4(C)C)C1=O` gave a selectivity index of 2.2 (coxsackievirus B3; cytopathic effect; Vero, Nancy; reference: CC50 over IC50).
With `N=C(N)c1ccc(-c2ccc(-c3cccs3)s2)cc1` the viability was 64.5 ± 4.8% (Salmonella typhimurium; liquid broth OD; TA1535; 50 µM, 15 h; reference: growth).
With `Cc1cc(C#N)cc(C)c1Oc1nc(NC2CCN(Cc3ccc(C(N)=O)cc3)CC2)nc2cccnc12` the selectivity index was 25400 (HIV-1; TZM-bl, NL4-3 wild type; reference: CC50 over EC50).

Repeated from above:
With `Cc1cc(C#N)cc(C)c1Oc1nc(NC2CCN(Cc3ccc(F)cc3)CC2)nc2ccccc12` the selectivity index was > 8.87 (HIV-1; TZM-bl, NL4-3 wild type; reference: CC50 over EC50).
`N=C(N)c1ccc(-c2ccc(-c3cccs3)o2)cc1` gave a viability of 94.7 ± 6.5% (Salmonella typhimurium; liquid broth OD; TA1535; 100 µM, 15 h; reference: growth).
